# Measured values from different studies.
# Numbered parts are unrelated; each lists some results of a single study.

# Series 1
# Target: Centromere-binding protein 1, full length, N-terminal tag (CBF1, Saccharomyces cerevisiae, UniProt P17106, residues 1-351)
# Sequence of UniProt P17106 (whole entry, looked up): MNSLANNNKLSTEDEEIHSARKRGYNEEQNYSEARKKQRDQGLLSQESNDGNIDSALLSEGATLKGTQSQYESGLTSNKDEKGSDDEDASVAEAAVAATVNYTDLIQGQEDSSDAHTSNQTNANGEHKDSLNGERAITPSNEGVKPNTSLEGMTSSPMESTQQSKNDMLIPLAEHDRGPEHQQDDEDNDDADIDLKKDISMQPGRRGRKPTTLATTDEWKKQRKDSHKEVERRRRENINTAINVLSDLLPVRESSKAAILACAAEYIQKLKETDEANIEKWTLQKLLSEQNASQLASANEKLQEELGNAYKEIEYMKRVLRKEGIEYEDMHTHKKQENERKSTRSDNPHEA
# Technique: protein-binding microarray
# Form: double-stranded DNA, one strand shown
# Matrix: in vitro
# Tested at: 0.8 µM
# Notes: whole 60-bp probe, no competitor
# Reading: higher = stronger binding
# Shared flanks, not repeated: … GTCTTGATTCGCTTGACGCTGCTG
Sequence,fluorescence intensity
CTAGTATTATTGAGTCACGTGCTTTATTCCATGTTC,23400 a.u.
GAATTAATTGCCCACCACCTTCTTAAAACTGTTTAG,533 a.u.
CTAACTGGCGTTCCTACCGTGATGGCAGCGATATTC,536 a.u.
GAATTGCTGTCTGCTGATGTCAATTAATTGTATTAG,1010 a.u.
GAAAAAATAGGGAAAAACGTGTACAAATGATTCTAG,672 a.u.
GAAAAAGGACAACAGAGGGTGATGATATGAAAATAG,616 a.u.
CTACACGGCATCTACCACATGTGGCTCAGGGTTTTC,615 a.u.
TGTACGAAGCTATCAAATGTGTCTATAGTAGTTAGG,525 a.u.
GAATGAAAGTGGGGTGCTCAGCTGATTTGCATCTAG,763 a.u.
TGTACGAAGCTATGTGACGTCATTATAGTAGTTAGG,563 a.u.
CCTAACTACTATAATGTGATGACATAGCTTCGTACA,571 a.u.
CTATACTCAAGAAGTCACGCTGTCATTTGATGGTTC,1220 a.u.
CTAATATATAAGATCCATGTGATAATGAATGCTTTC,1320 a.u.
CTATCCTTAGTTAAGCACGTGCCGATGATATCATTC,17200 a.u.
CTACAAAGCACTAGTCATGAAAAACGCTTACATTTC,524 a.u.
CTAATCCATTTTTAAAACGTGTGACTGTTTTCCTTC,746 a.u.
GAACTCGTTATAAGTGACGTGCCTGTTAGGAAATAG,531 a.u.
CTAATACGAACGGATCACGATACATCCACATATTTC,784 a.u.
GAAGGTAGCGATGGTGGTGGTAGTGGTGTATGCTAG,537 a.u.
GAATCACGTGTGCCTGACCACCTTCTCCGAGCATAG,9360 a.u.
GAATAAAAGCTTTTGAAGGTGGTGTCATTATTATAG,520 a.u.
GAACTCAACTCGTTTGATGTTACTTTCTTTGCCTAG,468 a.u.
GAAATAGAAACACAACACGTCATGGTTGTTCTTTAG,527 a.u.
CTATTACTTTTTTGTGACATCAAAATGAAGCACTTC,580 a.u.
GAACATGTGAAAAATCATGTGTTATTTCGTTAATAG,892 a.u.

# Series 2
# Target: Histone acetyltransferase KAT6A, winged helix 2, GST fusion (KAT6A, Homo sapiens, UniProt Q92794, residues 85-181)
# Technique: protein binding microarray
# Form: double-stranded DNA, one strand shown
# Matrix: in vitro
# Tested at: not given
# Notes: 8-mer, flanks averaged, mean of 2 arrays, mostly near background
# Baseline: not given
# Reading: higher = stronger binding
# Construct (chain): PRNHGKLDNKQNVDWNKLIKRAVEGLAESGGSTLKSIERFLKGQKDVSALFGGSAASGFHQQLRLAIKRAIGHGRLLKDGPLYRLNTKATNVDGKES
Sequence,E-score
AGAAAAAC,0.0425
ACTACCGC,0.0522
GATTAGGC,0.00084
CATGTATA,-0.137
TGGGAGAA,0.000995
CAGATGGA,0.13
TACCGATA,0.00265
CGATTTTC,0.159
CCTCTTAC,0.0408
AACGATTA,-0.203
GCGTAACC,-0.178
AGTCCCAC,-0.0296
CGAGAACA,0.104
ACTCTTAT,0.0609
CACGATCG,-0.167
CCGCGCGC,0.22
GCGTCTCA,-0.0255
ACGGAATG,-0.217
TGTAGTAA,0.0193
CCACCTAC,-0.198
GACCTGTA,-0.287
AACCACTC,0.00974
ACTATCCT,-0.174
CCATAAAC,-0.181
GACGTTTA,-0.24

# Series 3
# Target: Interferon regulatory factor 5, full length, phosphomimetic (IRF5, Homo sapiens, UniProt Q13568-2, residues 1-514, S451D/S453D/S456D/S462D)
# Technique: protein-binding microarray
# Form: double-stranded DNA, one strand shown
# Matrix: in vitro
# Tested at: 940 nM top
# Notes: 60-bp whole probe
# Together with: salmon DNA 0.4 mg/ml
# Baseline: random background probes
# Reading: higher = stronger binding
# Shared flanks, not repeated: GCCTAGCAC … GTCTTGATTCGCTTGACGCTGCTG
Sequence,fitted relative affinity
TTAGAACTGAGTATCAATTAGTGCTAG,0.428 z-score
GACTGTCTCCTTCTCCTGACGTGCTAG,0.619 z-score
GCATCGTAAGCAAAAATGATGTGCTAG,-0.399 z-score
GACGATTTCAGTTTCGAGACGTGCTAG,5.12 z-score
TTAGCTTTCCTACTGCTTTAGTGCTAG,0.618 z-score
TTAGGGTTCGGTATCGGTTAGTGCTAG,5 z-score
TCAGGTATCGACACTGGGTTAGTGCTA,3.65 z-score
TTTGTTTCCATTTTCTGAATGTGCTAG,1.71 z-score
TTAGGACTGCTACTGCTTTGGTGCTAG,-0.425 z-score
TTAGATCTCAGACTGTATTAGTGCTAG,-0.406 z-score
GACGATTTCAGTCTTGAGACGTGCTAG,0.265 z-score
TTATATTTTAATCACATATAGTGCTAG,0.195 z-score
GTATGGATGTGTTTTAAATAGTGCTAG,0.364 z-score
CACGATTTCGGGACTGGAGACGTGCTA,0.0753 z-score
GCTCCTTTTAATTTTTAACGGTGCTAG,0.667 z-score
TTAGGTATCCGTCTCGGTTAGTGCTAG,2.07 z-score
GACGGTTTCGGATATCGGGACGTGCTA,7.45 z-score
TTAGAACTGGGGACAGGATTAGTGCTA,0.189 z-score
TCAGATTTTCCCATGAGACTGTGCTAG,0.67 z-score
ACAAGTTTCTCCTTTCCAAAGTGCTAG,3.78 z-score
GACGATATCCGTTTCGAGACGTGCTAG,1.13 z-score
TCAGGTCTCGGTATCGGTTAGTGCTAG,6.76 z-score

# Series 4
# Target: RING finger protein unkempt homolog, zinc fingers 1-6, GST-SBP tag (UNK, Homo sapiens, UniProt Q9C0B0, residues 30-357)
# Technique: RNA Bind-n-Seq
# Form: RNA
# Matrix: in vitro
# Tested at: not given
# Notes: RNA with constant flanks, human and mouse sites, ends assumed
# Baseline: input RNA pool
# Reading: higher = stronger binding
# Shared flanks, not repeated: GGGAGUUCUACAGUCCGACGAUC … CAACAGAGGAUUGAGCAUCA
# Construct (chain): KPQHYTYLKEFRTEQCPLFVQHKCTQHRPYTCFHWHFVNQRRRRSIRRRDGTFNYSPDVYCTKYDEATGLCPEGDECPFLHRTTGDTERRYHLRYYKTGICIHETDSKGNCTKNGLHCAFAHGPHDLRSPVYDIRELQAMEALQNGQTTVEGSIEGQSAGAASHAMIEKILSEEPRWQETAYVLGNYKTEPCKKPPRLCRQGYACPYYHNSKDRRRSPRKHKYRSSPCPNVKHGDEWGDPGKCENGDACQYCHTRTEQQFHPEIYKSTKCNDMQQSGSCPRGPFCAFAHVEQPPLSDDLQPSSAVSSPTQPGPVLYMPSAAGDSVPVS
Sequence,bound/input enrichment
AAGACAUCACUCAUGAACCAGUAUGUGAAUAAGAAAUUCAGCAAUCAGUACAAAGCCACAAUAGGAGCUGACUUUCUGACCAAGGAGGUGAUGGUGGAUGACAGGCUAGUCACAAUGCAG,0.32 ratio
ACCCGAUUCUGUCUUAUCUGUAACUAUGUCAGUCGAAUAAUUGAACCCCUGACCUCUAGAUGUUCAAAAUUCCGCUUCAAGCCUCUGUCAGAUAAAAUUCAACAGCAGCGAUUACUAGAC,5.04 ratio
UGUGAAAGUGAGGGGAGGCUCCUGUCCCCCUCUCUUAAGGUCCCCAAACCUGGGAGUGCAUAGGUACUAAAUCAAGCAGUGCAACUUGUAAUUAAGCAGCUGCAGUGUUUACAUGUUUCU,0.293 ratio
UCUGCUCCUGGAAAAGAGAAAAGUGAAACUGAUAAGGAAACUUCUUUGGUAAAGCAAACAUUAGCAAAACUUCAACAACAAGAACAAAGGGAGGAGGCUCAGUGGACACCUACUAAAUUG,0.58 ratio
CGGGCCGGGCCUGCAGGAGCCGGGCCGCCGAGGUCGGGGCUGGUUGAACUCAUGGACCUGAUACUUUUCUCUUGAGAAGCAAACCAGCCCAAAAGAAAAAUGGCGUUUGUUGCAACACAG,0.123 ratio
UUCGUUGCCUGUAAGCCCACUUGCUUCUCACUUCAUCAGACAAGCUCAAUACACACAAGAUAGUAAUUUAAUGGGAGCUGUUAGGCUGGUCCACACGUGAAGAGAAACAAUUUCUAGCCU,1.22 ratio
CUCAUCGUCAUGGUCAGGCUCUGAUACCUGCUUUUAAAAUGGAGCUAGAAUGCUUGCUGGAUUGAAAGGGAGUGCCUAUCUAUAUUUAGCAAGAGACACUAUUACCAAAGAUUGUUGGUU,0.133 ratio
UCUCCGAAAUCUGAUAUUUCUCCACUCACCCCACGAGAGUCCUCACCUUUAUAUUCACCUGGCUUUUCAGAUUCUACCUCUGCAGCUAAAGAGACUGCAGCAGCUCACCAAGCCUCCUCU,0.427 ratio
GGGCUGCUUUACGCCCUGAGGAUCCCUUUGAGGCUGUGUGAGAAUUUGGCAGCGGUGACUGUAUUUUUAAAUUCAUUGACACCCAAAUUCUAUGUGGCACUUACAGGGACCUCUUCAUUG,0.0736 ratio
UGGCCAUCUCUGCCACUUCGGCACAGUAACCACCUUGGGACUAAGACCACCUAGAUAGUGAGAGCUGAACAACAACCAGACCAUGUCACACAAGCCAGAAACUCCAGUUACCUUUGCCAA,0.244 ratio
GAAGCUGCAGCACUACUAGAAAGUGGUAGUUCAGUGGGCGAUGAGACCGAUCUUGCUAAUUUAGGGGAUGUAUCUUCUGAUGGGAAAAAGGAGCCUUCAGAUAAAGCUGUGAAAAAAGAU,0.922 ratio

# Repeated from above (series 3):
Sequence,fitted relative affinity
TTAGCTTTCCTACTGCTTTAGTGCTAG,0.618 z-score
TTAGAACTGGGGACAGGATTAGTGCTA,0.189 z-score
TCAGATTTTCCCATGAGACTGTGCTAG,0.67 z-score
CACGATTTCGGGACTGGAGACGTGCTA,0.0753 z-score
TTATATTTTAATCACATATAGTGCTAG,0.195 z-score
GTATGGATGTGTTTTAAATAGTGCTAG,0.364 z-score
TCAGGTCTCGGTATCGGTTAGTGCTAG,6.76 z-score
GACTGTCTCCTTCTCCTGACGTGCTAG,0.619 z-score
GACGATATCCGTTTCGAGACGTGCTAG,1.13 z-score
TTAGGGTTCGGTATCGGTTAGTGCTAG,5 z-score
TTAGGACTGCTACTGCTTTGGTGCTAG,-0.425 z-score
